Measured values collected from several papers.
Each numbered part is a random draw from the data of one study; scales do not carry over between parts. Substitutions count along the parent as printed.

Sample 1 — target: CCNA1, cyclin fold, Cln2 fusion (human); method: yeast growth competition, sequencing; matrix: yeast; notes: weak parent motif; baseline: not given; direction: higher = stronger binding; endpoint: normalised enrichment score
Starting sequence: CDC6 docking peptide (human); TLKGRRLVFDNQL; partner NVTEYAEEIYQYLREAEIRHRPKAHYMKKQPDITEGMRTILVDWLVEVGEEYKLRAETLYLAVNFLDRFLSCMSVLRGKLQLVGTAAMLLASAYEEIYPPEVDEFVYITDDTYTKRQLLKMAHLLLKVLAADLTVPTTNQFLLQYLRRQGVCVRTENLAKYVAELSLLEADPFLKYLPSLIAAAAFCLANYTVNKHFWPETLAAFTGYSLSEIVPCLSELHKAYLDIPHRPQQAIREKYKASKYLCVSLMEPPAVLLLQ
Variant = TLKGNRLVFDNQL [R5N]; value = 0.0456
Variant = YLKGRRLVFDNQL [T1Y]; value = 0.184
Variant = TLKGRRLVFDNQS [L13S]; value = 0.325
Variant = TLKGERLVFDNQL [R5E]; value = -0.219
Variant = TGKGRRLVFDNQL [L2G]; value = 0.112
Variant = TLKFRRLVFDNQL [G4F]; value = 0.0946
Variant = TLKHRRLVFDNQL [G4H]; value = 0.397
Variant = TLKGRRLVFDAQL [N11A]; value = 0.434
Variant = TLKGRRLVYDNQL [F9Y]; value = 0.279
Variant = TLKGRPLVFDNQL [R6P]; value = 0.146
Variant = ELKGRRLVFDNQL [T1E]; value = 0.205
Variant = TLKGRRLVWDNQL [F9W]; value = 0.697
Variant = TLKGRRLVFDNQK [L13K]; value = -0.0731
Variant = TLKGRRDVFDNQL [L7D]; value = 0.21
Variant = TLKDRRLVFDNQL [G4D]; value = 0.41
Variant = TLKGRRLVTDNQL [F9T]; value = 0.262
Variant = TLKGRFLVFDNQL [R6F]; value = 0.117
Variant = TLKGRRLVFDNQG [L13G]; value = 0.0504

Sample 2 — method: universal PBM; form: double-stranded DNA, one strand shown; matrix: in vitro; tested at: 600 nM; direction: higher = stronger binding; endpoint: E-score
Target: Sal-like protein 4, full length isoform A (SALL4, Homo sapiens, UniProt Q9UJQ4, residues 1-1053)
Sequence of UniProt Q9UJQ4 (whole entry, looked up): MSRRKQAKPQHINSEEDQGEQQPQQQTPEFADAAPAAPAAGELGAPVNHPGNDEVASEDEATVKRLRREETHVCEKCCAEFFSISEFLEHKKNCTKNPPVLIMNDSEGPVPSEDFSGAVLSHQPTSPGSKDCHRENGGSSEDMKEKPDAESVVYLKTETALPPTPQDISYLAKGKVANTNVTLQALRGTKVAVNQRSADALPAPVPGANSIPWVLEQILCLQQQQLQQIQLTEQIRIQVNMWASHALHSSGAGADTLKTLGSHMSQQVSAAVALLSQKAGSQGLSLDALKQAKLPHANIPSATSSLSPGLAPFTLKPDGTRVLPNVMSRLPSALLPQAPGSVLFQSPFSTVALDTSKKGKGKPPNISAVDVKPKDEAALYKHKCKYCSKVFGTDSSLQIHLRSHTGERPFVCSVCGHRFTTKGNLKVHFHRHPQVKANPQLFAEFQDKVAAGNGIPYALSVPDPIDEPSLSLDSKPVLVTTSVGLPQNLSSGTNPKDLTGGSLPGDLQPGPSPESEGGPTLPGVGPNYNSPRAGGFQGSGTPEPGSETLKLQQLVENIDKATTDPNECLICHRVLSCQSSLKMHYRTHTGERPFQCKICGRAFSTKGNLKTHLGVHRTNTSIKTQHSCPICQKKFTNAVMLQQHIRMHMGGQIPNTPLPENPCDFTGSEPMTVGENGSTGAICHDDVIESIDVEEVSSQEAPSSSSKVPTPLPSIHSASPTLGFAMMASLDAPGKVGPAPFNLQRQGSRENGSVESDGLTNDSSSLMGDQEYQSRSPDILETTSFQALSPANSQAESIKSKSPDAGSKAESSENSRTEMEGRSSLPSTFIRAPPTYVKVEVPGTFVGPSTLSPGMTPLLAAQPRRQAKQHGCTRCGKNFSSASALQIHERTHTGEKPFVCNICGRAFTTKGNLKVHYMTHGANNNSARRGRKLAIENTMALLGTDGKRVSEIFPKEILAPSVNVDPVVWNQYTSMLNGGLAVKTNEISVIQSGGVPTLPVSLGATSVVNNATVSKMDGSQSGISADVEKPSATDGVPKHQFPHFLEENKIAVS
Notes: 8-mer, flanks averaged, mean of replicates
Sequence = CCGCCGTC; value = -0.368
Sequence = AACACATC; value = 0.147
Sequence = ATGCTAGA; value = 0.174
Sequence = TGAGGGCA; value = -0.0857
Sequence = CGTAACAG; value = 0.0595
Sequence = GTATTACA; value = 0.314
Sequence = ACCCAGTG; value = -0.237
Sequence = CTTACATA; value = 0.247
Sequence = CCGGTACG; value = -0.269
Sequence = AGGAACAG; value = -0.087
Sequence = GGTTATGA; value = 0.341
Sequence = AATTTGGA; value = 0.14
Sequence = AAATGGTA; value = 0.323
Sequence = GGAGTAAC; value = -0.0976

Sample 3 — method: RNAcompete; form: RNA; matrix: in vitro; tested at: 20 nM; notes: 7-mer, probes averaged, single round; baseline: mean of 7-mers; direction: higher = stronger binding; endpoint: 7-mer Z-score
Target: PABPC1L2, full length, GST fusion (mouse, UniProt A0ABA7IW68)
Target sequence (chain): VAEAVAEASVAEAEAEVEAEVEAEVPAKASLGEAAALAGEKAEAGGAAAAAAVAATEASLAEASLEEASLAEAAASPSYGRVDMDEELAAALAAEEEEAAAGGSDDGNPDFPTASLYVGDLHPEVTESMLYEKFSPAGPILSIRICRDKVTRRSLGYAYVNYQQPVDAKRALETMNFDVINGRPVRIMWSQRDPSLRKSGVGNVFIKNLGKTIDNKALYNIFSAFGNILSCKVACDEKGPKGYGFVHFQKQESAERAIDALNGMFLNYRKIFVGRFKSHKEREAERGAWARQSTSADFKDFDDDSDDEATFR
Sequence = CUAUCCC; value = -0.373
Sequence = GCACCCU; value = -0.306
Sequence = GUCCCUU; value = -0.394
Sequence = GGGCGAC; value = 0.434
Sequence = AAGCGUC; value = -0.0609
Sequence = AACCCCC; value = -0.432
Sequence = AGGUUGA; value = 0.0315
Sequence = GCACGCU; value = -0.184
Sequence = CUACAAA; value = 1.54
Sequence = UCAGGGG; value = 0.238
Sequence = UCCACCG; value = -0.313
Sequence = AGGGGUA; value = 0.294
Sequence = CAUCGCU; value = -0.447
Sequence = UUGAGGU; value = -0.0591
Sequence = GCACUAG; value = -0.139
Sequence = GGCUCCG; value = -0.0573
Sequence = UAUAAGU; value = -0.13
Sequence = GACGUGA; value = -0.135
Sequence = CCAAUAA; value = 0.376
Sequence = AUCGCCA; value = -0.287
Sequence = CAGAAGC; value = -0.0989
Sequence = CAAACUG; value = 0.149
Sequence = UUACGAC; value = 0.0116
Sequence = CUGGAAA; value = 0.582
Sequence = ACUGCCG; value = -0.0844

Sample 4 — method: DHFR PCA, deep sequencing; matrix: yeast; with: (+)-ABA 0.0091 µM; baseline: wild-type fitted maximum; direction: higher = stronger binding; endpoint: relative binding score
Target: ABI1, truncated, D143A, DHFR fusion (Arabidopsis thaliana)
Notes: methotrexate growth selection, single substitutions
Starting sequence: PYL1, truncated, DHFR fusion (Arabidopsis thaliana); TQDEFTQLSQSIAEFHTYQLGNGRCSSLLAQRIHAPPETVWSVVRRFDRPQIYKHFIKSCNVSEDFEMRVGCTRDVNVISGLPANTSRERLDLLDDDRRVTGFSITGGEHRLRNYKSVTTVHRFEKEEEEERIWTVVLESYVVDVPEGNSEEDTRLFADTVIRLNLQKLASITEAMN
Variant = T160D; value = -4.47%
Variant = K168Y; value = 5.71%
Variant = T173Y; value = -0.698%
Variant = S63F; value = -3.32%
Variant = V143N; value = -1.8%
Variant = L169F; value = -0.108%
Variant = S9E; value = 38%
Variant = S9V; value = 20.2%
Variant = W134Y; value = 77.5%
Variant = N114R; value = 4%
Variant = Y115S; value = -0.594%
Variant = L29H; value = 23.7%
Variant = P146G; value = 11.7%

Repeated from above (sample 3):
Sequence = GGCUCCG; value = -0.0573
Sequence = UAUAAGU; value = -0.13
Sequence = GACGUGA; value = -0.135
Sequence = CCAAUAA; value = 0.376
Sequence = AUCGCCA; value = -0.287
Sequence = CAGAAGC; value = -0.0989
Sequence = CAAACUG; value = 0.149
